Measurements from different studies.
Lines come from different studies, so protocols differ. Values joined by “and” are separate records of one study, mostly repeats; a detail may differ.
GBA2: Beta-glucosidase (GBA2, Homo sapiens, UniProt Q9HCG7)
Chain of UniProt Q9HCG7 (whole entry, looked up): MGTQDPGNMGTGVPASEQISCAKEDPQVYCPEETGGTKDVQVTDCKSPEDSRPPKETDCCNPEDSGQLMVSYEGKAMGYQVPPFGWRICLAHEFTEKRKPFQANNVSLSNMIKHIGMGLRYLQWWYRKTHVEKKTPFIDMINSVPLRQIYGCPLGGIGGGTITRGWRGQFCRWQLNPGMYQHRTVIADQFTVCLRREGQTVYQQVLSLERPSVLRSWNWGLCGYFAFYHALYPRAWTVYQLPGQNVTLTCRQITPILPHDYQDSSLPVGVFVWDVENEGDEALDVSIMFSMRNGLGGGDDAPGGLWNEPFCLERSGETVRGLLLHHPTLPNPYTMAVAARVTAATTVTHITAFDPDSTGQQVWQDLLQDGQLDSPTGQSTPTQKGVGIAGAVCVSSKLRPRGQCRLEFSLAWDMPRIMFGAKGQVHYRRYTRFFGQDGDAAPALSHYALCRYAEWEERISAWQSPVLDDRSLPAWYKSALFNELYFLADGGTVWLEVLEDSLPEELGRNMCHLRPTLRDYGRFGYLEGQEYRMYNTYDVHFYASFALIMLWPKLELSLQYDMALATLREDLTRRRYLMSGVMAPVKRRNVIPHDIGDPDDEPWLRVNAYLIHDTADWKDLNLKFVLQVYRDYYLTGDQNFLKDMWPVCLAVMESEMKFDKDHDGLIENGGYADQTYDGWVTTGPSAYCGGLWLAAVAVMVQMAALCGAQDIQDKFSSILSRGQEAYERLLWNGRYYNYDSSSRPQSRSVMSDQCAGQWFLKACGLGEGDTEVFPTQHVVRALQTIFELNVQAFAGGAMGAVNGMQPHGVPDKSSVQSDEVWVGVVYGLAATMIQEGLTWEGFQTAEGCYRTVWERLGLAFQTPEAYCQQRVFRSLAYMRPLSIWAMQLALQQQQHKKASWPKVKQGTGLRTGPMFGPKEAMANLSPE
E3 SUMO-protein ligase CBX4: E3 SUMO-protein ligase CBX4 (Homo sapiens, UniProt O00257)
Chain of UniProt O00257 (whole entry, looked up): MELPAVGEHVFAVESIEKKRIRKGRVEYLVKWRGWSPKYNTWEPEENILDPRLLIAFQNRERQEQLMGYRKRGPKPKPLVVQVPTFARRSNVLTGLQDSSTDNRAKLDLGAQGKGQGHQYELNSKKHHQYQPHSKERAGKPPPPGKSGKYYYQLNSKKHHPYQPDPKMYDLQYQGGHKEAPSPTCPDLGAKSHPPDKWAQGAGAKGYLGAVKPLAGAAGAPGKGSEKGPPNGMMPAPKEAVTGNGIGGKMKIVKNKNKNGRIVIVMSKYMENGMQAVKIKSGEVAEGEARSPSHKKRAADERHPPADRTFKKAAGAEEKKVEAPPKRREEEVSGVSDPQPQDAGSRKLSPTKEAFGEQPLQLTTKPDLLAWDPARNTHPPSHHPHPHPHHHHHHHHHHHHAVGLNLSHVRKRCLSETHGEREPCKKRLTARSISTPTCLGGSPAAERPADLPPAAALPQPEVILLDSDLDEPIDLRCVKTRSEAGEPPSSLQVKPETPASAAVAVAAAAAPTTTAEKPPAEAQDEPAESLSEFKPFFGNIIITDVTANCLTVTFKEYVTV
HSP90B1: Endoplasmin (HSP90B1, Canis lupus familiaris, UniProt P41148)
Chain of UniProt P41148 (whole entry, looked up): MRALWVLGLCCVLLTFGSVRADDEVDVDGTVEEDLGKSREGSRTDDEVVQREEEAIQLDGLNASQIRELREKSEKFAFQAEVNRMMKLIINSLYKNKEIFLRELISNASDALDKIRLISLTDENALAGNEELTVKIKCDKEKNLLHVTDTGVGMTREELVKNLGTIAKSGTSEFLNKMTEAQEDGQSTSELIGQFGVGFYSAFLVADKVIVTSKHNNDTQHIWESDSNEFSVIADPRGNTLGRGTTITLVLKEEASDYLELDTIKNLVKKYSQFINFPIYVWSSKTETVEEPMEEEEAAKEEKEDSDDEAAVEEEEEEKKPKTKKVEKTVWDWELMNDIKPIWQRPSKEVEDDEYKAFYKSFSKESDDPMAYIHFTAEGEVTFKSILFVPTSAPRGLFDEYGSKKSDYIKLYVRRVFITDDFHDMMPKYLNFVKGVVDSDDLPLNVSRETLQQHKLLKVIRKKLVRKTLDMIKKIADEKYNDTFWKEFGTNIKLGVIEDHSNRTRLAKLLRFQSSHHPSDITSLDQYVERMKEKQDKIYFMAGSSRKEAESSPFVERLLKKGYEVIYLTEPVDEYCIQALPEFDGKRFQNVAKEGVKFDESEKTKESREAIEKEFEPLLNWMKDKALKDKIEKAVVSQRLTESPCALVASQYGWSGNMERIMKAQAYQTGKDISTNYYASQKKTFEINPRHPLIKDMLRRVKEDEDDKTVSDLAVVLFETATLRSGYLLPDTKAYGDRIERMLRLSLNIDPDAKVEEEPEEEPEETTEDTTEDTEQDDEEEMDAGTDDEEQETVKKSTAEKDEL
Chain of UniProt P28161 (whole entry, looked up): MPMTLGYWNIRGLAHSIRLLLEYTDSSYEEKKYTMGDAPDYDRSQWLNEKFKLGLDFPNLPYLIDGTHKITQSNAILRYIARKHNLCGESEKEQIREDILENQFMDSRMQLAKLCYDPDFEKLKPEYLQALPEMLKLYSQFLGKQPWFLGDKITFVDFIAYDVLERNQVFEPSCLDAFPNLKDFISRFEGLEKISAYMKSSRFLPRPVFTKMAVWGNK

With OC[C@@H]1[C@@H](O)[C@H](O)[C@@H](O)CN1CCCCCOCC1CCOC1 (stereo partly shown) the selectivity ratio was 1720 (GBA2; reference: GBA1 over target).
The selectivity ratio of CC(=O)N[C@H](Cc1ccc2ccccc2c1)C(=O)N[C@](C)(Cc1ccc(Cl)cc1)C(=O)N[C@H](Cc1c[nH]c2ccccc12)C(=O)N[C@@H](CO)C(=O)N[C@@H](CCCCNC(C)C)C(=O)N[C@H](Cc1ccc(O)cc1)C(=O)N[C@@H](CC(C)C)C(=O)N[C@@H](CCCNC(=N)N)C(=O)N1CCC[C@H]1C(=O)N[C@H](C)C(N)=O is reported as 56 fold (Gonadotropin-releasing hormone receptor (Gallus gallus, UniProt Q9DDC9); binding, whole-cell radioligand binding; COS-7 transfected; reference: Gonadotropin-releasing hormone receptor over cGnRH-R-III).
For CN(C)CCNC(=O)c1cccc2c(NCCCCc3c(N)nc(N)nc3N)c3ccccc3nc12, the selectivity ratio was 10 (herring sperm DNA; binding, ITC; reference: Kd RNA A over Kd herring sperm DNA).
The selectivity ratio of C=C(CC)C(=O)c1ccc(OCC(=O)NCCCCNC(=O)COc2ccc(C(=O)C(=C)CC)c(Cl)c2Cl)c(Cl)c1Cl is reported as ~47 fold (Glutathione S-transferase Mu 2 (Homo sapiens, UniProt P28161); enzyme activity, inhibitor; no preincubation; reference: GSTP IC50 over GSTM IC50).
CC(OCCCCCN1C[C@H](O)[C@@H](O)[C@H](O)[C@H]1CO)C(C)(C)C (stereo partly shown) has a selectivity ratio of 1020 (GBA2; enzyme activity, inhibitor, 4-MU-β-D-glucopyranoside; HEK293T cell homogenate; reference: GCS IC50 over GBA2 IC50).
With C[C@H](NC(=O)[C@H](Cc1ccccc1)NC(=O)c1ccc(C(F)(F)F)cc1)C(=O)N[C@H](C(=O)N[C@@H](CCCC[N+](C)(C)C)C(=O)N[C@@H](CO)C(N)=O)C1CCCC1 the selectivity ratio was > 4 fold and 5.3 fold (E3 SUMO-protein ligase CBX4; competitive fluorescence polarization; reference: Cbx7 over E3 SUMO-protein ligase CBX4).
COC(=O)c1c(O)cc(O)c(Cl)c1CCc1ccccc1Cc1ccc(Cl)cc1 gave a selectivity ratio of > 24 fold (HSP90B1; fluorescence polarization; with: FITC-geldanamycin tracer; reference: HSP90B1 over Hsp90α).
For OC[C@@H]1[C@@H](O)[C@H](O)[C@@H](O)CN1CCCCCOCC1CCCO1 (stereo partly shown), the selectivity ratio was > 282 (GBA2; enzyme activity, inhibitor, 4-MU-β-D-glucopyranoside; HEK293T cell homogenate; reference: GCS IC50 over GBA2 IC50).
For CCOc1ccccc1Cc1ccccc1CCc1c(Cl)c(O)cc(O)c1C(=O)OC, the selectivity ratio was > 16 fold (HSP90B1; fluorescence polarization; with: FITC-geldanamycin tracer; reference: HSP90B1 over Hsp90α).
With CCN(CC)CCCC[C@H](NC(=O)[C@@H](NC(=O)[C@H](C)NC(=O)[C@H](Cc1ccccc1)NC(=O)c1ccc(C(F)(F)F)cc1)C1CCCC1)C(=O)N[C@@H](CO)C(N)=O the selectivity ratio was 3.1 fold (E3 SUMO-protein ligase CBX4; competitive fluorescence polarization; reference: Cbx7 over E3 SUMO-protein ligase CBX4).

Repeated from above:
The selectivity ratio of CC(=O)N[C@H](Cc1ccc2ccccc2c1)C(=O)N[C@](C)(Cc1ccc(Cl)cc1)C(=O)N[C@H](Cc1c[nH]c2ccccc12)C(=O)N[C@@H](CO)C(=O)N[C@@H](CCCCNC(C)C)C(=O)N[C@H](Cc1ccc(O)cc1)C(=O)N[C@@H](CC(C)C)C(=O)N[C@@H](CCCNC(=N)N)C(=O)N1CCC[C@H]1C(=O)N[C@H](C)C(N)=O is reported as 56 fold (Gonadotropin-releasing hormone receptor (Gallus gallus, UniProt Q9DDC9); binding, whole-cell radioligand binding; COS-7 transfected; reference: Gonadotropin-releasing hormone receptor over cGnRH-R-III).
